Published values pooled from the literature.
Compare with care: the assays were run in different laboratories. ± marks the error that the study gave.
Complement C3 C3b fragment: Complement C3, C3b fragment (Homo sapiens, UniProt P01024)
HTR2B: 5-hydroxytryptamine receptor 2B (HTR2B, Homo sapiens, UniProt P41595)
lecA: PA-I galactophilic lectin (lecA, Pseudomonas aeruginosa, UniProt Q05097)

| SMILES | target | test | system | setting | how to read | endpoint | value |
| --- | --- | --- | --- | --- | --- | --- | --- |
| CCOC(=O)C1=CN([C@@H]2O[C@H](CO)[C@@H](O)[C@H]2O)C=CC1 | NAD-dependent protein deacylase sirtuin-5, mitochondrial (SIRT5, Homo sapiens, UniProt Q9NXA8) | desuccinylase activity, activator | – | concentration not given | – | activation | ~2.8 fold |
| CC[C@H](C)[C@H](NC(C)=O)C(=O)N[C@H]1CSSC[C@@H](C(=O)N[C@@H](CC(C)C)C(N)=O)NC(=O)[C@H](CCCNC(=N)N)NC(=O)[C@H](Cc2c[nH]cn2)NC(=O)[C@H](C)NC(=O)CN(C)C(=O)[C@H](Cc2c[nH]c3ccccc23)NC(=O)[C@H](CC(=O)O)NC(=O)[C@H](CCC(N)=O)NC(=O)[C@H](Cc2cn(C)c3ccccc23)NC(=O)[C@H](C(C)C)NC1=O | Complement C3 C3b fragment | SPR | – | 25 °C | reference: [Trp(Me)4]-Ac-compstatin | relative KD | 2.6 |
| C=C1C(=O)O[C@@H]2[C@H]3C(CO)=CC(=O)C3=C(C)C[C@H](OC(=O)Cc3ccc(O)cc3)[C@@H]12 | Alpha-glucosidase MAL12 (MAL12, Saccharomyces cerevisiae S288c, UniProt P53341) | circular dichroism | – | 65.22 µM | – | random coil content | 31.1% |
| CNc1ccccc1C(=O)O[C@H]1C[C@H](n2cnc3c(N)ncnc32)O[C@@H]1COP(=O)(O)OP(=O)(O)O | Unconventional myosin-Va (Gallus gallus, UniProt Q02440, D297C/G292C/I296C/S293C/V295G) | van't Hoff analysis | – | with: 2 mM Mg2+ | – | ΔS of pocket step | -17.8 ± 11.2 cal/(mol·K) |
| CSCC[C@H](NC(=O)[C@H](CO)NC(=O)[C@@H](NC(=O)[C@H](CCC(N)=O)NC(=O)[C@@H](CCCNC(=N)N)NC(=O)[C@@H](CCCNC(=N)N)NC(=O)[C@@H](CCCCN)NC(=O)[C@@H](CCCNC(=N)N)NC(C)=O)[C@@H](C)O)C(=O)N[C@H](C(=O)N[C@@H](CC(=O)O)C(=O)N[C@@H](Cc1ccccc1)C(=O)N[C@@H](Cc1ccc(O)cc1)C(=O)N[C@@H](Cc1c[nH]cn1)C(=O)N[C@@H](CO)C(=O)N[C@H](CCCCN)C(=O)N[C@H](CCCNC(=N)N)C(=O)N[C@H](CCCNC(=N)N)C(N)=O)[C@@H](C)O | Proliferating cell nuclear antigen (PCNA, Homo sapiens, UniProt P12004) | binding, isothermal titration calorimetry | – | pH 7.4, 25 °C, 100 mM NaCl, with: p21 peptide | – | entropic term −TΔS | 8.37 ± 0.239 kcal/mol |
| O=C1C=CC2(c3coc4cc(O)ccc4c3=O)c3cc(-c4coc5cc(O)ccc5c4=O)ccc3OC2C1 (stereo not shown) | laccase (Trametes versicolor) | substrate, Hill kinetic model | – | product formation | – | Hill coefficient | 1.36 |
| C[C@]12CC[C@H]3[C@@H](CCC4=CC(=O)CC[C@@]43C)[C@@H]1CC[C@@H]2C(=O)CO | Cytochrome P450 11B2, mitochondrial (CYP11B2, Homo sapiens, UniProt P19099) | substrate | – | – | reference: CYP11B2:adrenodoxin 1:10 over 1:1 | kcat increase | 2 fold |
| Oc1c(C(Nc2nc3ccccc3s2)c2cccc(OCc3ccccc3)c2)ccc2cccnc12 (stereo not shown) | Genome polyprotein, NS2B-NS3 protease (Dengue virus type 2, UniProt P14340) | substrate, tetrapeptide cleavage | – | 3 µM, 37 °C, with: 40 µM ZnCl2 | – | kcat | 0.0956 ± 0.0022 s⁻¹ |
| N=C(N)NCCC[C@@H](N)C(=O)NCC(=O)N[C@H](CCC(=O)O)C(=O)N[C@H](CCCNC(=N)N)C(=O)N1CCC[C@@H]1C(=O)N1CCC[C@@H]1C(=O)N[C@H](CCCNC(=N)N)C(N)=O | Neuropilin-1 (NRP1, Homo sapiens, UniProt O14786) | SPR | – | – | – | binding free energy ΔG | -10 kcal/mol |
| Cn1ccc2c(N3CCN(CCCCOc4ccc5c(c4)NC(=O)CC5)CC3)cccc21 | HTR2B | arrestin recruitment, Tango | cells | – | reference: serotonin | efficacy | ~25% |
| CC(=O)N[C@@H](CO)C(=O)N[C@@H](CC(C)C)C(=O)N[C@@H](CCC(=O)O)C(=O)N[C@@H](CCC(=O)O)C(=O)N1CCC[C@H]1C(=O)N[C@@H](Cc1c[nH]cn1)C(=O)N[C@@H](COP(=O)(O)O)C(=O)N1CCC[C@H]1C(=O)N[C@@H](CCC(=O)O)C(=O)N[C@H](C(=O)NCC(=O)N[C@@H](CCC(=O)O)C(=O)N[C@@H](CCCCN)C(=O)N[C@H](C(=O)N[C@H](C(=O)N[C@@H](C)C(=O)NCC(=O)N[C@@H](CCC(=O)O)C(=O)N[C@H](C(=O)N[C@@H](CC(N)=O)C(N)=O)C(C)C)C(C)C)C(C)C)[C@@H](C)O | Kelch-like ECH-associated protein 1, Kelch domain (KEAP1, Homo sapiens, UniProt Q14145) | isothermal titration calorimetry | Kelch domain | pH 7, 298.15 K | – | ΔG | -7.95 ± 0.1 kcal/mol |
| CCN(CCCC[C@H](NC(=O)[C@H](Cc1ccc(OC)c(OC)c1)NC(=O)[C@H](C)NC(=O)[C@H](CC1CCCCC1)NC(=O)c1ccc(Br)c(N)c1)C(=O)N[C@@H](CO)C(=O)OC)C(C)C | Chromobox protein homolog 1 (Homo sapiens, UniProt P83916) | binding, refers to: CBX1 | HEK-293T cell lysate | concentration not given | – | competition of probe pulldown | inhibited |
| CC[C@H](C)[C@H](NC(C)=O)C(=O)N[C@H]1CSCC[C@@H](C(=O)N(C)[C@H](C(N)=O)[C@@H](C)CC)NC(=O)[C@H](CCCNC(=N)N)NC(=O)[C@H](Cc2c[nH]cn2)NC(=O)[C@H](C)NC(=O)CN(C)C(=O)[C@H](Cc2c[nH]c3ccccc23)NC(=O)[C@H](CC(=O)O)NC(=O)[C@H](CCC(N)=O)NC(=O)[C@H](Cc2cn(C)c3ccccc23)NC(=O)[C@H](C(C)C)NC1=O | Complement C3 C3b fragment | binding, SPR | – | sulfoxide oxidized | reference: untreated peptide | Kd ratio | 4 to 6 fold |
| C=CCOc1ccc(C[C@@H]2NC(=O)[C@H](C(C)C)NC(=O)[C@@H](NC(=O)[C@@H](NC(C)=O)[C@@H](C)CC)CSSC[C@@H](C(=O)N[C@H](C(N)=O)[C@@H](C)O)NC(=O)[C@H](CCCNC(=N)N)NC(=O)[C@H](Cc3c[nH]cn3)NC(=O)[C@H](C)NC(=O)CNC(=O)[C@H](Cc3c[nH]c4ccccc34)NC(=O)[C@H](CC(=O)O)NC(=O)[C@H](CCC(N)=O)NC2=O)cc1 | Complement C3 C3b fragment | SPR | – | pH 7.4, 25 °C | – | kon | 530000 ± 130000 M⁻¹ s⁻¹ |
| CC[C@H](C)[C@H](NC(=O)[C@@H]1CSSC[C@H](NC(=O)[C@@H](NC(C)=O)[C@@H](C)CC)C(=O)N[C@@H](C(C)C)C(=O)N[C@@H](Cc2cn(C)c3ccccc23)C(=O)N[C@@H](CCC(N)=O)C(=O)N[C@@H](CC(=O)O)C(=O)N[C@@H](Cc2c[nH]c3ccccc23)C(=O)NCC(=O)N[C@@H](C)C(=O)N[C@@H](Cc2c[nH]cn2)C(=O)N[C@@H](CCCNC(=N)N)C(=O)N1)C(N)=O | Complement C3 (Homo sapiens, UniProt P01024) | ITC | PBS | concentration not given, pH 7.4, 25 °C | – | −TΔS of binding | 5.7 kcal/mol |
| C[C@@H]1NC(=O)[C@H](CC(N)=O)NC(=O)[C@H](Cc2ccccc2)NC(=O)c2cc3ccccc3cc2NC(=O)[C@H](CCCNC(=N)N)NC(=O)[C@@H]2CCCN2C(=O)[C@H]2CCCN2C(=O)[C@H](Cc2ccccc2)NC1=O | Melanocortin receptor 3 (Mus musculus, UniProt P33033) | antagonist, cAMP β-galactosidase reporter | – | no activity up to, with: MTII | – | antagonist activity | > 100 µM |
| NC(=O)CN1C(=O)C(O)(CC(=O)c2cccc(N)c2)c2ccccc21 (stereo not shown) | uncharacterized protein (Leishmania donovani, UniProt A0A3Q8IA09) | competitive ITC | – | with: aspartate 60 µM | – | TΔS | -2.09 kcal/mol |
| COc1cncc(C(=O)N2CC3CCC(N)C3C2)n1 (stereo not shown) | HTR2B | β-arrestin recruitment, agonist | – | – | – | Emax | 112% |
| OC[C@H]1O[C@@H](OCc2cn([C@@H]3O[C@H](CO)[C@@H](n4cc(CCCCc5cn([C@H]6[C@H](O)[C@@H](O)[C@H](n7cc(CO[C@@H]8O[C@H](CO)[C@H](O)[C@H](O)[C@H]8O)nn7)O[C@@H]6CO)nn5)nn4)[C@H](O)[C@H]3O)nn2)[C@H](O)[C@@H](O)[C@H]1O | lecA | isothermal titration calorimetry | – | 25 °C | – | ΔG | -10.8 ± 0.14 kcal/mol |
| CCOC(=O)c1cc2c(N)c(C(=O)OC)sc2nc1C | Urea transporter 1 (Mus musculus, UniProt Q8VHL0) | urea permeability, osmotic lysis | mouse erythrocytes | – | – | maximal inhibition | > 80% |
| O=C(COc1ccc(F)cc1)N[C@@H](Cc1cn(CCNC(=O)c2ccc(S[C@@H]3O[C@H](CO)[C@H](O)[C@H](O)[C@H]3O)cc2)nn1)C(=O)NCCO | lecA | binding, isothermal titration calorimetry | – | 25 °C | – | −TΔS | 3.49 ± 0.167 kcal/mol |
| OC(Cc1cc(-c2ccc(C(O)C(F)(F)F)s2)sc1-c1ccc(-c2sc(-c3ccc(C(O)C(F)(F)F)s3)cc2CC(O)C(F)(F)F)s1)C(F)(F)F (stereo not shown) | Microtubule-associated protein tau, 0N4R isoform, aggregated (MAPT, Homo sapiens, UniProt P10636) | binding, fluorescence | 30% sucrose tau fraction | – | reference: 30% over 20% fraction | Kd ratio | 49 |
| Nc1ncnc2c1ncn2[C@H]1C[C@H](O)[C@@H](COP(=O)(O)OP(=O)(O)C(F)(Cl)P(=O)(O)O)O1 (stereo partly shown) | DNA polymerase eta (POLH, Homo sapiens, UniProt Q9Y253) | dNTP incorporation, single-turnover kinetics | – | W sequence, A·T pair | reference: non-enzymatic LFER line | delta effective pKa4 | 1.4 pK units |
| O=C(COCCCc1ccccc1)N[C@@H](Cc1cn(CCNC(=O)c2ccc(S[C@@H]3O[C@H](CO)[C@H](O)[C@H](O)[C@H]3O)cc2)nn1)C(=O)NCCO | lecA | binding, isothermal titration calorimetry | – | 25 °C | – | −TΔS | 3.56 ± 0.191 kcal/mol |
| COc1cccc2c1C(=O)c1c(O)c3c(c(O)c1C2=O)CC(O)(C(=O)CO)CC3OC1CC(NC(=O)C[C@H](N)C(=O)O)C(O)C(C)O1 (stereo partly shown) | Large neutral amino acids transporter small subunit 1 (SLC7A5, Homo sapiens, UniProt Q01650) | transport, substrate | S2 cells expressing SLC7A5 | – | – | Km | 41.4 µM |

Excerpt of the above:
| SMILES | target | test | system | setting | how to read | endpoint | value |
| --- | --- | --- | --- | --- | --- | --- | --- |
| OC[C@H]1O[C@@H](OCc2cn([C@@H]3O[C@H](CO)[C@@H](n4cc(CCCCc5cn([C@H]6[C@H](O)[C@@H](O)[C@H](n7cc(CO[C@@H]8O[C@H](CO)[C@H](O)[C@H](O)[C@H]8O)nn7)O[C@@H]6CO)nn5)nn4)[C@H](O)[C@H]3O)nn2)[C@H](O)[C@@H](O)[C@H]1O | lecA | isothermal titration calorimetry | – | 25 °C | – | ΔG | -10.8 ± 0.14 kcal/mol |
| CCOC(=O)c1cc2c(N)c(C(=O)OC)sc2nc1C | Urea transporter 1 (Mus musculus, UniProt Q8VHL0) | urea permeability, osmotic lysis | mouse erythrocytes | – | – | maximal inhibition | > 80% |
| O=C(COc1ccc(F)cc1)N[C@@H](Cc1cn(CCNC(=O)c2ccc(S[C@@H]3O[C@H](CO)[C@H](O)[C@H](O)[C@H]3O)cc2)nn1)C(=O)NCCO | lecA | binding, isothermal titration calorimetry | – | 25 °C | – | −TΔS | 3.49 ± 0.167 kcal/mol |
